# Assay results collected from several papers.
# Numbered parts are unrelated; each lists some results of a single study. Changes are numbered by the printed parent chain.

# Sample 1
# Target: Ras GTPase-activating protein-binding protein 1, C-terminal RGG region (G3BP1, Homo sapiens, UniProt Q13283)
# Chain of UniProt Q13283 (whole entry, looked up): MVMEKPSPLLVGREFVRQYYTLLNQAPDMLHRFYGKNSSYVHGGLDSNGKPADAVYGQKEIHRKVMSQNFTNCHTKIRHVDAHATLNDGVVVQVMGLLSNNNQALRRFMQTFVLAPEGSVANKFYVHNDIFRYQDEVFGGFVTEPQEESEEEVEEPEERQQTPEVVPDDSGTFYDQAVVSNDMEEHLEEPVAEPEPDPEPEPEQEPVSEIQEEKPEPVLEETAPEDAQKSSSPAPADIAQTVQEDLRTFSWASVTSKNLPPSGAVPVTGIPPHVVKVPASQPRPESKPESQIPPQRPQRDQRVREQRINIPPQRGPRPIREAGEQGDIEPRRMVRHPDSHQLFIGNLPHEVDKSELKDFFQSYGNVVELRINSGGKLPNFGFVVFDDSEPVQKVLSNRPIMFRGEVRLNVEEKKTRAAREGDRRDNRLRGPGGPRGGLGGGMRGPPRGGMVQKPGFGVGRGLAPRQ
# Technique: RNA Bind-n-Seq
# Molecule type: RNA
# Matrix: in vitro
# Tested at: 1 µM
# Setting: whole 134-nt RNA, ends assumed
# Together with: 150 mM KCl
# Relative to: input library
# Direction: higher = stronger binding
Sequence,log2 enrichment
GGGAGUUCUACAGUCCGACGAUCUCCUCAAGUCCUGUGCUACACAUCGUAUGUACCGAAUCGGGCGGCGGGCGGAAAGUAUUAUGUUACGCCGUUCGGAUCUGCACUUCCAGCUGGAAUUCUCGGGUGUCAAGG,-1.2
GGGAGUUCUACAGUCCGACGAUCUCAAGUCCUGUGCUACACAUCGUAUGUACCGAAUCGGAAAGGUUUUUUUGGUGGAAAGUAUUAUGUUACGCCGUUCGGAUCUGCACUUCCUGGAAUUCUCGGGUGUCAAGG,-1.34
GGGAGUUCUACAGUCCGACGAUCUCUAGAUACAGAUGCACGAUUUGGCCAUGGAUCCGACUACUCUCGCCAACAGAACAGAUUUAAUGACUUUGAUCACCGAGAGAGGGGCAGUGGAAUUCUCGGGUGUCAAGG,-1.03
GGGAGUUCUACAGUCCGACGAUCGCAGGAAGUAAAAACAAAUGGAAAUGCUUCGGAUAGUGGCAGGGAAAGGGGUUGCUAAGGAAAGGGUGGGAUGGGAGUGGGUAAAGAGUUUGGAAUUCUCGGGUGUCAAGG,2.1
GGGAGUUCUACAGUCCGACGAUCACCAUGCAGGUGGGCAUCUUUGGGAAGUGGGGCAAGGGGGGGAUAGGGAGGGGGGUAACACUUUGGGAACAGGUGGUGCCAGGUCGUUUCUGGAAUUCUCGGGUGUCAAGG,2.18
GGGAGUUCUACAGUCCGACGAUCUGGGAGGUGGAUUUUGUUUAUUUUUUUAGCUCAUUUCCAGGGGUGGGAAUUUUUUUUUAAUAUGUGUCAUGAAUAAAGUUUUUUUUGAAAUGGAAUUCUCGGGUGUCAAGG,3.52
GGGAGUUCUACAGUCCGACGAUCCCUCAAGUCCUGUGCUACACAUCGUAUGUACCGAAUCGGAAAAAGGUGGUGGAAAGUAUUAUGUUACGCCGUUCGGAUCUGCACUUCCAGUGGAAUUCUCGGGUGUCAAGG,-0.643
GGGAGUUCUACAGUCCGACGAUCAAGUCCUGUGCUACACAUCGUAUGUACCGAAUCGGAGGAAAAAAAGGAAAAAAAGGAAAGUAUUAUGUUACGCCGUUCGGAUCUGCACUUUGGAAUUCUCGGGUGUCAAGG,-1.87
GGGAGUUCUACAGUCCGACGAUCGUCCUGUGCUACACAUCGUAUGUACCGAAUCGGCCCCCGGGGCCCCCGGCCCCCGGGGAAAGUAUUAUGUUACGCCGUUCGGAUCUGCACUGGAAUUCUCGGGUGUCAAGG,-1.41
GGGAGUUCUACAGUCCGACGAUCUCCUGUGCUACACAUCGUAUGUACCGAAUCGGGGUUUUUUUGGGGAAAGGGGUUUGGGGAAAGUAUUAUGUUACGCCGUUCGGAUCUGCAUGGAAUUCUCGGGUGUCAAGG,1.8
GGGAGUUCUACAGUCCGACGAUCUCAAGUCCUGUGCUACACAUCGUAUGUACCGAAUCGGCCCGGGCCCGGGCCCGGAAAGUAUUAUGUUACGCCGUUCGGAUCUGCACUUCCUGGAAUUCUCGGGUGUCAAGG,-1.47
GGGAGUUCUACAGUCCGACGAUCUCAUUGCAUGAAAAGUGGAAAAGUUUAGAUCUAUGGAAACAGAACUGUUGCCUAUAUGGAAAAUCAGUGCCUUGUGGCAAUACAGGUAAGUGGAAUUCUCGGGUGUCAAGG,-2.31
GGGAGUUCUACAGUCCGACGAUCGUCCUGUGCUACACAUCGUAUGUACCGAAUCGGAAAAAAGGAAAAAAGGGAAAAAAGGAAAGUAUUAUGUUACGCCGUUCGGAUCUGCACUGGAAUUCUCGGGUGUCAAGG,-1.48
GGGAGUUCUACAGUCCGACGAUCAGUCCUGUGCUACACAUCGUAUGUACCGAAUCAAACCCAAACCCCCCCAAACCCAAAAAAGUAUUAUGUUACGCCGUUCGGAUCUGCACUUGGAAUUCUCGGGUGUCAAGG,-1.25

# Sample 2
# Target: Interferon regulatory factor 7, full length, phosphomimetic (IRF7, Homo sapiens, UniProt Q92985, residues 1-503, S471D/S472D/S475D/S476D/S477D/S483D/S484D/S487D)
# Technique: protein-binding microarray
# Molecule type: double-stranded DNA, one strand shown
# Matrix: in vitro
# Tested at: 2200 nM top
# Setting: 60-bp whole probe
# Together with: salmon DNA 0.4 mg/ml
# Relative to: random background probes
# Direction: higher = stronger binding
# All sequences stand within: GCCTAGCAC … GTCTTGATTCGCTTGACGCTGCTG
# Target sequence (chain): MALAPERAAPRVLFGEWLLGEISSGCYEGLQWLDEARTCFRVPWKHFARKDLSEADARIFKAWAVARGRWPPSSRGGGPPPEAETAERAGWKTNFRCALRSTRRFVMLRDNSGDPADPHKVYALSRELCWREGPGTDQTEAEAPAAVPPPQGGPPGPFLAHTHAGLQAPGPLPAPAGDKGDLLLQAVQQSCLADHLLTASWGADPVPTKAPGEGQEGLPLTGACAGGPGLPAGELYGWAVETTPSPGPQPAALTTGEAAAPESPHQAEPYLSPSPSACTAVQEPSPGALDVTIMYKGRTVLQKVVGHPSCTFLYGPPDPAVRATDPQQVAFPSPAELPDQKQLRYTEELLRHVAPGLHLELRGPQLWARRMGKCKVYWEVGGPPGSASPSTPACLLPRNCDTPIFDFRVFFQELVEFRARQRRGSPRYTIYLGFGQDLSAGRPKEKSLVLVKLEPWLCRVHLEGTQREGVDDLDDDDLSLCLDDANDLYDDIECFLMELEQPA
Sequence,fitted relative affinity [z-score]
TCAGGTTTCGGGTATCGGTTAGTGCTA,6.54
TTATAACTGAGTATCGATTAGTGCTAG,-0.124
ATAGGTCTCCTTATCCTTTAGTGCTAG,0.927
GACGGACTGGGTCTAGGGACGTGCTAG,-1.14
TCATCTTTCACTACTCCACTGTGCTAG,2.88
GACGATCTCAGTTTCGATACGTGCTAG,4.9
TTAGGACTGGGTCTCGCTTAGTGCTAG,-0.181
GACGGTCTCGGTTTCTGGACGTGCTAG,2.31
CACGGTTTCGACACTGGGGACGTGCTA,3.01
GACGAACTGAGTTTCGTGACGTGCTAG,1.46
GACGGACTGGACACTGGCGACGTGCTA,-0.612
TCATTTTTCTATATGCAACTGTGCTAG,3.06
TTAGCTATCAGACTGGATTAGTGCTAG,-0.137
GAATTTCCCACTTTCAGTTCGTGCTAG,7.52
TTAGGACTGCCTTTCCTTTAGTGCTAG,1.06
AACACTCTTCTTTTGCTAATGTGCTAG,1.38
GACGTTATCCTTTTCCTGACGTGCTAG,1.93
ATAAATATGAGACTGGGGATGTGCTAG,-0.206
TTAGGACTGCTTCTCCTTTAGTGCTAG,0.862
TTAGGACTAGGGTTTCGGTTAGTGCTA,2.51
TTAGGTCTCCTTCTCATTTAGTGCTAG,0.778
GACGGACAGGACTATCGGGACGTGCTA,-0.994
TTAGGACTGGGAACTGGGTTAGTGCTA,-0.997
TTAGGTATCGACACTGGGTTTGTGCTA,0.038
CCCTGTTTCTACTGTCTGTTTGTGCTA,2.85

# Sample 3
# Target: CCNE2, cyclin fold, Cln2 fusion (human)
# Technique: yeast growth competition, sequencing
# Matrix: yeast
# Setting: weak parent motif
# Relative to: not given
# Direction: higher = stronger binding
# Starting sequence: DBF4B docking peptide (human); LGYLYLLLTQSLW
Substitution,normalised enrichment score
LAYLYLLLTQSLW [G2A],0.725
LGYLYLLLTQALW [S11A],0.777
AGYLYLLLTQSLW [L1A],1.45
LGYLYLLATQSLW [L8A],1.04
LGALYLLLTQSLW [Y3A],0.665
LGYLYLLLTQSAW [L12A],0.77
LGYLALLLTQSLW [Y5A],1.31

# Sample 4
# Target: BATF2, bZIP domain (human)
# Technique: DHFR protein complementation
# Matrix: yeast
# Setting: single substitutions, most at no-binding floor
# Relative to: wild-type JUN-FOS pair
# Direction: higher = stronger binding
# Starting sequence: JUN, bZIP domain (human); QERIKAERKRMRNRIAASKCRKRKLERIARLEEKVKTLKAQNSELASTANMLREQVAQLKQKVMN; partner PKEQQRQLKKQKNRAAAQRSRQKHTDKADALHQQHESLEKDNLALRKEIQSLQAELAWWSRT
Substitution,binding fitness
V35Q,-1.57 natural log
V56G,-1.35 natural log
R30L,-0.102 natural log
S43D,-0.174 natural log
L52F,-1.35 natural log
S47Y,-0.331 natural log
T48Y,-0.298 natural log
R53H,-1.01 natural log
T37L,-0.135 natural log
E33R,-0.537 natural log
M51V,-0.334 natural log
K39I,-0.392 natural log
Q55F,-1.05 natural log
T48L,-0.232 natural log
Q41H,-0.595 natural log
R53M,-1.12 natural log
T48H,-0.292 natural log
Q41K,-0.473 natural log
K36P,-1.35 natural log
M51S,-0.226 natural log
I28S,-0.705 natural log
K34I,-0.581 natural log
L59V,-0.0559 natural log

# Sample 5
# Target: Histone acetyltransferase KAT6A, both winged helices, GST fusion (KAT6A, Homo sapiens, UniProt Q92794, residues 1-181)
# Technique: protein binding microarray
# Molecule type: double-stranded DNA, one strand shown
# Matrix: in vitro
# Tested at: not given
# Setting: 8-mer, flanks averaged, mean of 2 arrays, mostly near background
# Relative to: not given
# Direction: higher = stronger binding
# Construct (chain): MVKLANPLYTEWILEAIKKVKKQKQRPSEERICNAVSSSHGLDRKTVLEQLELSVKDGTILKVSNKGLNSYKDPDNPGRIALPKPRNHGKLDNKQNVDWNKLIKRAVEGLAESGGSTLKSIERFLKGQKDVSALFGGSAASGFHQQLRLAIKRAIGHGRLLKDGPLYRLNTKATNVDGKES
Sequence,E-score
CAGGAGTA,-0.185
ACTGCTTC,0.00787
CGCTATTC,0.21
CCCGAGTC,0.069
AAACGTTC,0.0429
GTAGGGAC,0.00619
GGAACATA,-0.126
CGGGGCAG,0.166
GCCGATCA,0.103
AGAGTCTG,-0.196
ACTCAAGT,-0.207
ACGCAACG,0.175
AAGTCAGA,-0.106
CCCCCTTC,-0.357
CTTCCCCA,-0.13
CTTGGATC,-0.147
AAAAGACG,-0.00258

# Sample 6
# Target: CEP164, C-terminal peptide (human)
# Technique: DHFR complementation, deep sequencing
# Matrix: yeast
# Setting: single substitutions, model-inferred values
# Relative to: wild type
# Direction: higher = weaker binding
# Starting sequence: PDZK1, PDZ domain 2 (human); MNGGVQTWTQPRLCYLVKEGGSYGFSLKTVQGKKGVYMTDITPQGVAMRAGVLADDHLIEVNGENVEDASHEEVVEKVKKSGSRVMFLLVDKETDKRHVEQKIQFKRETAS; partner HNRVKVYRF
Substitution,binding free energy change
Q44D,-0.0988 kcal/mol
T94A,-0.11 kcal/mol
Q44R,0.0562 kcal/mol
V90H,-0.158 kcal/mol
Q44G,-0.283 kcal/mol
E73I,0.0595 kcal/mol
K80N,0.49 kcal/mol
K28D,1.99 kcal/mol
R107G,-0.191 kcal/mol
E60C,0.0989 kcal/mol
L88F,0.0797 kcal/mol
A110C,-0.138 kcal/mol
S81N,1.03 kcal/mol
I103R,-0.147 kcal/mol
T7Y,-0.0455 kcal/mol
V61F,1.92 kcal/mol

# Sample 7
# Target: ABI1, truncated, D143A, DHFR fusion (Arabidopsis thaliana)
# Technique: DHFR PCA, deep sequencing
# Matrix: yeast
# Setting: methotrexate growth selection, single substitutions
# Together with: (+)-ABA 0.11 µM
# Relative to: wild-type fitted maximum
# Direction: higher = stronger binding
# Starting sequence: PYL1, truncated, DHFR fusion (Arabidopsis thaliana); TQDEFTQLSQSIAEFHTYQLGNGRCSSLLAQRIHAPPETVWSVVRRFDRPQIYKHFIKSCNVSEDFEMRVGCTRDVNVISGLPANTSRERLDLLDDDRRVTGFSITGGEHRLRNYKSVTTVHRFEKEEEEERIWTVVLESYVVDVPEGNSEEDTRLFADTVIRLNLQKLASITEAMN
Substitution,relative binding score
M176F,8.81%
I105V,21.5%
G21L,5.11%
E151A,55.9%
F103C,-6.14%
R111F,0.287%
Q19E,55.6%
Q7C,31.4%
R163H,10.2%
Q10V,13.4%
A13T,26.1%
R74D,2.23%
F56L,7.32%
E147K,11%
T101K,-3.59%
N114E,-6.07%

# For quick reference, copied from above (sample 6):
Substitution,binding free energy change
T7Y,-0.0455 kcal/mol
Q44G,-0.283 kcal/mol
E73I,0.0595 kcal/mol
R107G,-0.191 kcal/mol
Q44D,-0.0988 kcal/mol
V61F,1.92 kcal/mol
E60C,0.0989 kcal/mol
S81N,1.03 kcal/mol
Q44R,0.0562 kcal/mol
K28D,1.99 kcal/mol
K80N,0.49 kcal/mol
A110C,-0.138 kcal/mol
L88F,0.0797 kcal/mol
T94A,-0.11 kcal/mol
V90H,-0.158 kcal/mol
